Experimental data of several laboratories.
Parts stem from different laboratories: compare values within a part only.

Study 1 — method: RNA Bind-n-Seq; molecule type: RNA; sample: in vitro; concentration: not given; setting: RNA with constant flanks, ends assumed; reference: input RNA pool; direction: higher = stronger binding; measurement: bound/input enrichment
Target: RING finger protein unkempt homolog, zinc fingers 1-6, GST-SBP tag (UNK, Homo sapiens, UniProt Q9C0B0, residues 30-357)
Sequence of UniProt Q9C0B0 (30-357, looked up): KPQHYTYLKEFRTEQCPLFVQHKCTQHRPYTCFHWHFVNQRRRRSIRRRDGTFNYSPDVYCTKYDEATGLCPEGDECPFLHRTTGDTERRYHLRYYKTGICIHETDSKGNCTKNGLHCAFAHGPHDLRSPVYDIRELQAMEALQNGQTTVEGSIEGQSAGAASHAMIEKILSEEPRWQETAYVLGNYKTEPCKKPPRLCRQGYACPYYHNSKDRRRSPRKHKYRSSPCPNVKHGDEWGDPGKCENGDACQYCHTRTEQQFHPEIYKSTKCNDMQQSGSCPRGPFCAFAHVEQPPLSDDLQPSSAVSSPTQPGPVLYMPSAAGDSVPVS
Shared flanks, not repeated: GGGAGUUCUACAGUCCGACGAUC … CAACAGAGGAUUGAGCAUCA
AUUCUUACAGAUAAAAACUGUAUAUGUUUAUAAAUAGUUAUAAAGAACUAUUUUAUAUAACCGCUAUUAUCAUUGUAGAAAUGACUUACAAAUACAAAAUGUGUAUGUAAAUACUUUCUG: 0.215 ratio
GCCUUAUAUAGCAACAUACUUGGUGAGGAAAACACCUACCUGUGGCGCACAUCACUGUAUUCCGCUUCUUCUGCCAGUGCUGAAUUCUUCGCUGACAUUGCCCUGGCUCCUAUGGAAGCU: 0.236 ratio
UAUCCAAAUCUAAACAUGAUUGAGACAUUUAUUUGUCAAGUGUGUGAGGAGACACUUUCACACCGCGUGAAUUCCCCUGAACAGCUAACUGGAAUGAGGAUGCUUAGACAUCUCACUAUA: 0.22 ratio
UUUCUGAAAAUCCAAAGUCAGGAAGCCAAGUGUGCGAAGGGUUAGUGACGCCUCUGGCAACCGCUUUGGCUUGCCCUGGGCCAUACUCUGUCAGCACUGAAAGGAGGUUUAAAUACUAUG: 0.0807 ratio
UUCGACUUUCUUUGCCAGUACCAUAAACCAGCAAGCAAGAUUCCUGCUUUCCUAAAUGCCGUGGAUAUUGCUGGCCUUGUAAAAGGAGCUCACAAUGGGCAGGGCUUGGGGAAUGCCUUU: 0.111 ratio
GUGUGUGGGGUAGCCUUGGCCCCUGCCUUGGCCUUGCCUCUCUUCCCUGUCACCUGCCCCCCGUUAUUUUUUUUUUGACCACCACGUGAUUAUGGUCGGUGCUGCCUCCCCCCCGACCUG: 4.82 ratio
AUCUCUUUUCCCCUGUCCUGAUUUUAAAAGCCCCCUCCUUUUUUUUUUUUUUUUUCUUUUUUCCGGCAUAUGUAGUAAUAUUAGAAACAUUUAAUUUGGGAAACUUUGAUUCUUGAAAGA: 7.93 ratio
CAAACCUGCAAUCCUGGAGAAGUAGGGCGAACAGAUAAGGAAAGAAAAAAAUUGAAGCCGGACUUUGGGGCCAAGGGGAGUUCUUUCAAUGCACUCCCCCUUUCUCCCCACCGCCACAGC: 0.536 ratio
GUUUGAGCCUAGCAAUUGCAGAACUCAUAAAAUUGCUUGUGAAAUUACACACCAUAUUACCCGCAUAUACAUUGCAGUGCUCCAAUCAUGCUAACAGAUAAUAGAUUUUUCUUUAAGAAU: 0.64 ratio
AGAUUAGGCCAUGAUCCCUACAGACUAACUCCGGAUCCCUAUAGGGUAUCACCUAGGCCCUACCGAACCGCACCCAGGUCCUAUAGGAUAGCACCUAGGCCAUACAGGUUAGCACCUAGA: 0.818 ratio
GAUCAGAGCUGAUCAACUCCUUUAGGAUUGCCUGUGGAGGAUACCUUCAGUCGAAGUUUUUUCCGCCCUCACUGAGCUACUUCCAAGUUUGGAAGUACUUAGUGACCUUGGUGAGUUUCU: 0.567 ratio

Study 2 — method: RNA Bind-n-Seq; molecule type: RNA; sample: in vitro; concentration: 200 nM; setting: whole 134-nt RNA, ends assumed; together with: 150 mM KCl; reference: input library; direction: higher = stronger binding; measurement: log2 enrichment
Target: Ras GTPase-activating protein-binding protein 1, full length (G3BP1, Homo sapiens, UniProt Q13283)
Sequence of UniProt Q13283 (whole entry, looked up): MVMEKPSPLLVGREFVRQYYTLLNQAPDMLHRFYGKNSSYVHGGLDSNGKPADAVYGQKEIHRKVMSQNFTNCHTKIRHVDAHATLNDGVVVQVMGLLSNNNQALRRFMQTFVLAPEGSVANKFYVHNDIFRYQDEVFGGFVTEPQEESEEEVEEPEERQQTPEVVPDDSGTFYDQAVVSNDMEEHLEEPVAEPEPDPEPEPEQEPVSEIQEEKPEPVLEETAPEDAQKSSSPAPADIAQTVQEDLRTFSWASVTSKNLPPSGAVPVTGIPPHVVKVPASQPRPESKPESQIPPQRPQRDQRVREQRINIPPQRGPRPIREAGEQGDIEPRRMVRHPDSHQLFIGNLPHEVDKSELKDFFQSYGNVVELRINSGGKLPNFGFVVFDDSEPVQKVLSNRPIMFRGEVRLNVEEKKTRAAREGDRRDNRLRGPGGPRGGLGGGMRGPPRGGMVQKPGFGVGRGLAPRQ
Shared flanks, not repeated: GGGAGUUCUACAGUCCGACGAUC … UGGAAUUCUCGGGUGUCAAGG
UGCAUUUCCUGAGCUGAAGAAGGACCCAGACAUGGUGAAGGACAUCAUUAAUGAAGAAGAGGUGCAGUUUCUCAAGACUCUCAGCAGAGG: -0.833
ACCAUGCAGGUGGGCAUCUUUGGGAAGUUGGGCAAGGGGGGGAUAGGGAGGGGGGUAACACUUUGGGAACAGGUGGUCCCAGGUCGUUUC: 1.05
UGAUCUCCAGGAUGACAUGCGAAGAUGCCAAAUCAUCCGAGACAUGAUUGGACCGGAAAAGACUUUGGUAAAUAUCCUCUCACACCACUA: -1.22
UGGCCCUGGUGGCAUGCGGGGAGGAAGAGGUGGCCUCACGGAUCGUGGUGGUCCCGGUGGAAUGUUCAGAGGUGGCCGUGGUGGAGACAG: 0.412
GUCCUGUGCUACACAUCGUAUGUACCGAAUCGGGAAAAAAAGGGAAAGGGAAAAAGGGAAAGUAUUAUGUUACGCCGUUCGGAUCUGCAC: -0.581
UAGGUAUUUCUGGGAAAAGCCAGCUUCUGUUUGCACUGGUCUUCACAACUCGUUACCUGGAUCUUUUUACUUCAUUUAUUUCAUUGUAUA: -2.43
UGGCCCUGGUAGCAUGCGGGGAGGAAGAGGUGGCCUCAUGGAUCGUGGUGGUCCCGGUGGAAUGUUCAGAGGUGGCCGUGGUGGAGACAG: 0.144
GUCCUGUGCUACACAUCGUAUGUACCGAAUCGGAAAAAAGGAAAAAAGGGAAAAAAGGGAAAGUAUUAUGUUACGCCGUUCGGAUCUGCA: -0.938
UGUGCUACACAUCGUAUGUACCGAAUCGGGGAAAAAAAGGGAAAAAAAGGGGAAAAAAAGGGAAAGUAUUAUGUUACGCCGUUCGGAUCU: -0.669
GCAGGAAGUAAAAACAAAUGGAAAUGCUUCGGAUAGUGGCAGGGGUGGGGGUUGCUAAGGAAAGGGUGGGAUGGGAGUGGGUAAAGAAAA: 1.05
CACAGACUACACGCACCCACACAGACACAGAGGGAAGGGGUUGGGAUGGGGACAGGGUGCACAGCAGGGCGGGGUAGGACCCCAGCCCCU: 1.77
CACAGACAACACGCACCCACAUAGACACAGAGGGAAGGGGUUGGGAUGGGGACAGGGUGCACAGCAGGGCGGGGUAGGACCCCAGCCCCU: 1.94
AGUCCUGUGCUACACAUCGUAUGUACCGAAUCGGAAAAAGGGGAAAAAGGAAAAAGGGAAAGUAUUAUGUUACGCCGUUCGGAUCUGCAC: -0.912
AGUCCUGUGCUACACAUCGUAUGUACCGAAUCGGGGAAAAGGGGAAAAGGGAAAAGGGAAAGUAUUAUGUUACGCCGUUCGGAUCUGCAC: 0.225

Study 3 — method: protein binding microarray; molecule type: double-stranded DNA, one strand shown; sample: in vitro; concentration: not given; reference: not given; direction: higher = stronger binding; measurement: E-score
Target: Histone acetyltransferase KAT6A, winged helix 2, GST fusion (KAT6A, Homo sapiens, UniProt Q92794, residues 85-181)
Setting: 8-mer, flanks averaged, mean of 2 arrays, mostly near background
Residues (chain): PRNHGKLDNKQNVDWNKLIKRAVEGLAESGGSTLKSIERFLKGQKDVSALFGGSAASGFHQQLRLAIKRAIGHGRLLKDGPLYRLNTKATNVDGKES
CGGAGCCC: 0.026
ATCGTTGC: 0.038
TAACCTAA: -0.0994
AACAGCTG: -0.0147
ATCTTCAA: -0.0919
CTAATGCA: 0.0524
CGCCTCAG: 0.0169
GTGGGACA: 0.118
CAAACCCC: -0.0557
CTCTTTTC: -0.155
GCGACCTA: 0.106
GGTAATCA: -0.0954
CACCGAAA: 0.0423
TGTGTTAA: -0.00743
CCAAATTC: 0.0658
CCTAGGAC: -0.13
ACCAATCG: 0.00228
ATGCTGCA: 0.0254
CTTACAGC: -0.0902
ATCAGGGA: -0.211
ATGGGACC: -0.0964
GCCTAGGC: 0.084
AAAAGAGT: -0.0694
ATCGAGAC: 0.0274
CAAGGCCG: -0.0209

Study 4 — method: RNA Bind-n-Seq; molecule type: RNA; sample: in vitro; concentration: 365 nM; reference: no-protein control; direction: higher = stronger binding; measurement: RBNS enrichment (R)
Target: RNA binding protein fox-1 homolog 2, RRM domain, GST-SBP tag (RBFOX2, Homo sapiens, UniProt O43251-10, residues 100-194)
Setting: natural RNA segment, single round, ends assumed
Shared flanks, not repeated: GGGAGUUCUACAGUCCGACGAUC … UGGAAUUCUCGGGUGCCAA
Residues (chain): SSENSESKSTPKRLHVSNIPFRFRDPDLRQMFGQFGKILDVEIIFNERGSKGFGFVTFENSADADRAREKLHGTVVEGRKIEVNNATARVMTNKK
CCAGCCUGCUGUCUACCAAAGGACUGUUCCCAGACCCUGUCUUUACCCUUCCCUUUUAAAGUCCCUGAAUUUUACAGUCUGCUUUCAAAUGAAAUAUUGUACUUUAAUUC: 1.11
ACUUAGUGACAUUAUGUGUGACAGAAUUAAAUGACCGGGAAGAAAACGAAAACCACUUUCCAGUAAUAUAUGGCAUUGCUGUCAACAUUAAGACUGCAGAGAUUUACAGA: 0.302
UCUUCUCAACCCUUCAAACUUCUGGUGACACUUAAGAUGUAGCUGAUUCCCCUCAUCCGAACUGCUGUGUCCAACCUCCAUUGAAGAGCCUUUUCUCCCUCCCUCUCCCU: 0.926
UCUUCUCAUCUCCCAAACCCCCUGAGCCCGUAGGGUUUUCAUAGUGGACAAAGAACUUGUGGUCUUUUAAAACUGGGACUGAUACUUUUUUGAGAGAGUAUCGUGUCGAA: 0.365
GCGUUUCUGAUGGAAACAGUUUGGAUUGUAUAAUAACGCCAAGCCCAGUUGUAGUCGUUUGAGUGCAGUAAUGAAAUCUGAAUCUAAAAUAAAAACAAGAUUAUUUUUGU: 0.399
UUGUGCUUUGAAGAGAGUGAAUUUUGGAUAGUCUUGUGAUUCUCAGACUAACUUCCAGAAUUAUACUUUAACCCCUCCCAGAUAUGGUCCGCCUUUGGCAUUGUGUGUAC: 0.78
CUUUUUGCCCCUCCUUCCUUAGCAAGCCCGUUUGAUUGACAGCUCUCCUGCUCUGAGUUCACUCUGUGCCUCCAUUUGCAUUUUGCUUAGUUGAUCCGGUUUCUCUGUUC: 2.2
CCAACCUGGUAAAACUCCACUUCAGAUGGACCUGAGACCACAUCUGGCUGCGCCAAUGCCCCAGCUGCUUUGUGGGCAGGCUCUACUAGUUGGCGAGGCACCUGCACAUU: 0.636
AGGAGCACAAGAGAGGAGCCUGUGGCCCCAUGCAGAUGAAAAGGACGGGCAGGGUCUCCUGAGCAGCAGGUGGCUCGAGGCGGUUAGCAGGCUCCAGCAGCUCCCUUCUU: 0.955
UUUUGUAUUCAUAAGCUAAUAUGUUAGAGUUCUAUGUAGUUUUCUCUUGUGCACCUGCAUCAGAAAACCAUAGGACAACAAGGUGGCUAGGCAGUUAUCACCCCUCUGCU: 0.358
UUUAAAUUUGAAAACAUGUUUUAGGGAGUUUAGUUCUAGAAAUUUCUCUUAGAUUGAAGUGACAGAAUCUGAAAGAAAAGAAUAUGAUUGAGCUAUUUGUUUUCCUGAAC: 0.964
UGAUCUGUGAUUGCGGAUUUUCGGAGGACACACACGUUGGCACUUCUUGGUAGCCCUGGUUUGCAUUGCUUUGUGUUUCCACACCCGAGGCUGUGUGGGCGGGUGCAUGU: 4.11
